Results pooled from the literature.
A part holds a random share of what one study measured. Substitutions count along the parent as printed.

Sample 1 — technique: protein binding microarray; molecule type: double-stranded DNA, one strand shown; matrix: in vitro; tested at: not given; reference: not given; direction: higher = stronger binding
Target: Histone acetyltransferase KAT6A, both winged helices, GST fusion (KAT6A, Homo sapiens, UniProt Q92794, residues 1-181)
Notes: 8-mer, flanks averaged, mean of 2 arrays, mostly near background
Target sequence (chain): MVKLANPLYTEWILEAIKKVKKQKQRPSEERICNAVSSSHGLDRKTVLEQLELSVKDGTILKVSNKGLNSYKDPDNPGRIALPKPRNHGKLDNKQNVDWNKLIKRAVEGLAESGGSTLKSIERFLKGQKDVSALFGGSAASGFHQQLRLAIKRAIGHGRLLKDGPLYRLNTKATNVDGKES
Sequence | E-score
AACCCAAG | -0.168
GTAGGTGA | -0.055
TATAAGGA | -0.0903
GCCGCTAC | 0.279
AGCACCCC | -0.0803
CCACGCCA | -0.215
CTGGGGCC | -0.0504
CACGAACC | 0.124
AGTGAGGC | -0.175
AGCGACCT | -0.00344
AGAGTATC | -0.0293
CTAAGAAG | -0.0724
GACGCCGC | 0.358
ATTCACCG | 0.201
ACTGCTCT | -0.11
AGAGGATA | -0.307
GAGCCCGC | 0.157
ATAGACCG | 0.0737
ACTTCACA | -0.214
GTAAGTAC | 0.0633
AACGATGA | -0.0333
AATAGAGC | -0.159
GCCCTTGA | -0.13
ACAATACG | 0.0916
CAATCAGG | 0.00361

Sample 2 — technique: RNA Bind-n-Seq; molecule type: RNA; matrix: in vitro; tested at: 365 nM; reference: no-protein control; direction: higher = stronger binding
Target: RNA binding protein fox-1 homolog 2, RRM domain, GST-SBP tag (RBFOX2, Homo sapiens, UniProt O43251-10, residues 100-194)
Notes: natural RNA segment, single round, ends assumed
Shared flanks, not repeated: GGGAGUUCUACAGUCCGACGAUC … UGGAAUUCUCGGGUGCCAA
Construct (chain): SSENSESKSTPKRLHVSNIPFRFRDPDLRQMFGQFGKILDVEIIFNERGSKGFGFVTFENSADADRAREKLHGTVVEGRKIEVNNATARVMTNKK
Sequence | RBNS enrichment (R)
UUGCACUACACUCACUCCGUGCUGCAAGUCCAGGGAUACUGUCUGUGGCCACUGAAGUCUCAGGUGCAGAUGGGUUCUCCCGGGAACCCAGGGUUGGAUCCAUAAGGCUU | 0.258
CUGCAUCUUGAUCCUCCUGUACGCCAUGUACAAGUACAGGAACAGGGACGAGGGGUCCUAUCAAGUGGACGAGACGCGGAACUACAUCAGCAACUCCGCCCAGAGCAACG | 0.578
AGAAACGACCCUGGCCAAUGUCAACGCAGAGCCGAGGCGGUGUUGUCACGGCUAAUGUGAAAUCUCUUCCCGUGGCGCCCAUCCUCUGACUCUGCAGUGCCAGCUUGGAC | 0.324
UGCAUCACCAUUUCUUUGGCCCCCUUACUCUGUUGUCCUUUCCCUUUUCUUUCAGUUUUUUUAAUCGCAUGUCUAGUAUAUUAAGUCUCCAUAGCCCUCCUGAUGCAGUA | 58.3
UCUUUUGCAGCCGUCUGGGCCGCUUCUCGGUGAGCCGCGGUAGGCGUGGCUGCACGGAGUCACAAGCCUCUUGACAUGUUAGCCAUUUCCAGCGUCCUAACUGACUGUAA | 0.202
AUCCUAAGAAUGAUGAACCAUUGUCCUAGCUGCCUCCCACAUCAAUGCAUGAGGCCAAGAAACUAGCCAAGCUUCCCUUUAGGGGCAUUUGAGCUCUGGGGAGAAAGGAU | 17.8
GGUUGGGCCCAGGUGCUGCUCAGCCAGGAAACGAGAGCAAACACUCCAGGGCCUUUGCAAGCCCAUCGCCCUCCUCACUGGAGACACCCAGACCUGCCUUCCUCCACCAA | 0.367
UGAAACAAACUCCAGGCCCUUUGUUGCCAGUGGCUGGGCCUAAGGGUUGCCCCGGGACCGUGCUCAGCUGCUCUGCAUGCCCUGUCCUACUGACAGGUACCUUAGUUCUG | 3.13
UUUUUUUUUUUGUACCUUUCUGGGAUUUUAAUUCUUGCUAGUUACCGAUGUAUGAUGUGAAAAGGAAACAGAUGAUGAUGUGUAUAAUAAAAUUGUUACCAUUCACUCAG | 0.786
CCCCCAGACACCAUUCACCGACCCACUGCAGGCUGUCCUCCAACCAUGGGGUGGCCACUCCACCCGCAGCCAGACUCCCCGCUCCCCACUUUUCAUGCAGGCUGGCAUAC | 1.23
UCACCACCUGGUCCUAAUUUAUGUGCAGGAGCACGACACCACUUGUCUCCAGCGCCACACAUCCGAGGUGUACUUUGUGUGCAGAAUGUGUCUUCCUUCUGGCCUGUAAU | 0.371
CUUUUGCUUAUUAUAGGGUGCUCUGAGGGUCUUCUCUGUGUCCUCUGACCCAAGACAAAAUGCACAAGUCAGGAAGCACUUCCUUGUGCCCGAGCUGUGGGCCACCCUGG | 0.261

Sample 3 — target: CCNB1, cyclin fold, Cln2 fusion (human); technique: yeast growth competition, sequencing; matrix: yeast; notes: weak parent motif; reference: not given; direction: higher = stronger binding
Parent: ORC1 docking peptide (human); PRARKRLELGNLG
Variant | normalised enrichment score
N11T | 1.02
E8T | 0.0289
R6P | 0.342
N11P | 0.667
E8W | 0.256
A3W | 0.186
L12D | -0.0745
K5G | 0.26
R6Y | 0.656
K5S | -0.0523
L9A | 1.03
E8P | 0.885
A3Q | 1.21
A3Y | 1.63
L9W | 0.328
E8G | -0.101
L9Y | 0.453

Sample 4 — technique: RNA Bind-n-Seq; molecule type: RNA; matrix: in vitro; tested at: 200 nM; notes: whole 134-nt RNA, ends assumed; added: 150 mM KCl; reference: input library; direction: higher = stronger binding
Target: Ras GTPase-activating protein-binding protein 1, full length (G3BP1, Homo sapiens, UniProt Q13283)
UniProt Q13283, sequence (whole entry, looked up): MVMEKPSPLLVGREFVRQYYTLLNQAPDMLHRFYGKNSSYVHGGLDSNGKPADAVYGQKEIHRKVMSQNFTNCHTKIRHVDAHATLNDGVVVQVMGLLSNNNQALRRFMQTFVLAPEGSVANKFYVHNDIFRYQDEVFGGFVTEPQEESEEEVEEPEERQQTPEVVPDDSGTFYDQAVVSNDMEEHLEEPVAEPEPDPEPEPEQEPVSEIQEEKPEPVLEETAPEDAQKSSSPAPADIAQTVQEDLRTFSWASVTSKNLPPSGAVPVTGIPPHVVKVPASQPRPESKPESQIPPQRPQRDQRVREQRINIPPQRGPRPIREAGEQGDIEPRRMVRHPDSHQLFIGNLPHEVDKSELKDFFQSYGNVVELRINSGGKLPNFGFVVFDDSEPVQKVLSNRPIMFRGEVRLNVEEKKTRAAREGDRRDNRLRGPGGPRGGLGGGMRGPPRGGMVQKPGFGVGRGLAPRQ
Shared flanks, not repeated: GGGAGUUCUACAGUCCGACGAUC … UGGAAUUCUCGGGUGUCAAGG
Sequence | log2 enrichment
AGUCCUGUGCUACACAUCGUAUGUACCGAAUCGGGGAAAAAGGAAAAAGGAAAAAGGGAAAGUAUUAUGUUACGCCGUUCGGAUCUGCAC | -0.745
UCCUCAAGUCCUGUGCUACACAUCGUAUGUACCGAAUCGGUGGAGGAAAGGAAAGUAUUAUGUUACGCCGUUCGGAUCUGCACUUCCAGC | -0.57
AGUCCUGUGCUACACAUCGUAUGUACCGAAUCGGGUUUUUGGUUUUUGGUUUUUGGGAAAGUAUUAUGUUACGCCGUUCGGAUCUGCACU | -1.36
UGGCCCUGGUGGCAUGCGGGGAGGAAGAGGUGGCCUCAUGGAUCGUGGUGGUCCCGGGGGAAUGUUCAGAGGUGGCCGUGGUGGAGACAG | 0.149
CUCAAGUCCUGUGCUACACAUCGUAUGUACCGAAUCGGAGGUUUGGUUUUUGGAAAGUAUUAUGUUACGCCGUUCGGAUCUGCACUUCCA | -0.388
UCAAGUCCUGUGCUACACAUCGUAUGUACCGAAUCGGGUUUGGGAGGGUUUGGGAAAGUAUUAUGUUACGCCGUUCGGAUCUGCACUUCC | 0.966
CUGUGCUACACAUCGUAUGUACCGAAUCGGGGUUUUUGGGGUUUUUUUGGGGAAAAAGGGGAAAGUAUUAUGUUACGCCGUUCGGAUCUG | -0.313
AGUCCUGUGCUACACAUCGUAUGUACCGAAUCGGGGUUUGGGGUUUGGGGAAAGGGGAAAGUAUUAUGUUACGCCGUUCGGAUCUGCACU | 0.782
AGUCCUGUGCUACACAUCGUAUGUACCGAAUCGGGGAAAGGGGUGGGGUUUUUGGGGAAAGUAUUAUGUUACGCCGUUCGGAUCUGCACU | 0.499
CUGUGCUACACAUCGUAUGUACCGAAUCGGGGUUUUUGGGGAAAAAAAGGGGAAAAAGGGGAAAGUAUUAUGUUACGCCGUUCGGAUCUG | -0.181
UGUGCUACACAUCGUAUGUACCGAAUCGGGGCCCCCCCGGGGCCCCCCCGGGCCCCCCCGGGGAAAGUAUUAUGUUACGCCGUUCGGAUC | -1.87
AGUCCUGUGCUACACAUCGUAUGUACCGAAUCGGGAAAGGGAAAGGGUUUUUUUGGGAAAGUAUUAUGUUACGCCGUUCGGAUCUGCACU | -0.29
UGGCCCUGGUGGAAUGCGGGGAGGAAGAGGUGGCCUCAUGGAUCGUGGUGGUCCCGGUGGAAUGUUCAGAGGUGGCCGUGGUGGAGACAG | 0.163
UGGGAGGUGGAUUUUGUUUAUUUUUUUAGCUCUUUUCCAGGGGUGGGAAUUUUUUUUUAAUAUGUGUCAUGAAUAAAGUUGUUUUUGAAA | 0.212

Sample 5 — technique: protein-binding microarray; molecule type: double-stranded DNA, one strand shown; matrix: in vitro; tested at: not given; direction: higher = stronger binding
Target: Hepatocyte nuclear factor 3-beta, forkhead domain (FOXA2, Homo sapiens, UniProt Q9Y261, residues 142-269)
Notes: k-mer, scored over probes, only values ≥0.25
Target sequence (chain): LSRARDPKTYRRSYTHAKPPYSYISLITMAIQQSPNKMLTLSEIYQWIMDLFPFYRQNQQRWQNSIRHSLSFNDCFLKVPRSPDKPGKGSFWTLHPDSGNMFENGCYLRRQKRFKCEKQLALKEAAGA
Sequence | E-score
GAATACAA | 0.267
TACCACAA | 0.357
AGATGTAT | 0.311
ATGATAAC | 0.308
ATTCATAA | 0.277
AACACTAT | 0.254
ACAATTGT | 0.282
GGTACACA | 0.264
TATTTACA | 0.405
AAACATCA | 0.338
ACAACAAA | 0.3
TCATTACA | 0.285
AATAATAC | 0.277

Sample 6 — technique: universal PBM; molecule type: double-stranded DNA, one strand shown; matrix: in vitro; tested at: not given; direction: higher = stronger binding
Target: Sal-like protein 4, full length isoform B (SALL4, Homo sapiens, UniProt Q9UJQ4-2, residues 1-616)
Notes: 8-mer, flanks averaged, mean of replicates
Sequence | E-score
TTAATCAA | 0.37
GCGGTAGA | -0.0935
GGCAGAAC | -0.0588
GGAGGAAC | -0.147
CCCGTTCC | -0.216
CGTATGAG | 0.0485
ATAACTTC | 0.255
CCCGAGAA | -0.19
CGGCCAAA | -0.0763
AACATTGA | 0.211
CCCATAGA | -0.0647
GAGGTTAC | -0.0977
ATCTGAAC | 0.0452
CTGTTTTA | 0.191
GCACGATA | 0.139
AAACCTGG | -0.21
ACTTTATC | 0.121
AGCGTGAA | 0.0324
CTGACCAC | -0.129
CCGAGACC | -0.33
CAACTGAA | -0.0345
CTGAAAAG | -0.0505
ATACCGTG | -0.11
CCGTACGA | 0.0504
GGTAGAGA | -0.12

Excerpt of the above (sample 3):
Variant | normalised enrichment score
E8P | 0.885
R6Y | 0.656
N11T | 1.02
K5G | 0.26
A3Y | 1.63
N11P | 0.667
A3W | 0.186
R6P | 0.342
L9W | 0.328
E8T | 0.0289
L9A | 1.03
E8G | -0.101
L12D | -0.0745
K5S | -0.0523
E8W | 0.256
L9Y | 0.453
